Experimental data of several laboratories.
Each numbered part is a random draw from the data of one study; scales do not carry over between parts.

Study 1 — method: RNA Bind-n-Seq; molecule type: RNA; matrix: in vitro; concentration: 365 nM; relative to: no-protein control; direction: higher = stronger binding
Target: RNA binding protein fox-1 homolog 2, RRM domain, GST-SBP tag (RBFOX2, Homo sapiens, UniProt O43251-10, residues 100-194)
Notes: natural RNA segment, single round, ends assumed
All sequences stand within: GGGAGUUCUACAGUCCGACGAUC … UGGAAUUCUCGGGUGCCAA
Residues (chain): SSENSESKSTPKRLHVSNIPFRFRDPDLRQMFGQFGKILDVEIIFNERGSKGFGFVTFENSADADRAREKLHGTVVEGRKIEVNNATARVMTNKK
Oligonucleotide	RBNS enrichment (R)
UUGCUGUAGCUGAGACUUGUCUAGAGUCCUUUGUUUUGCACUUUUGACCCACCCCUUCCUGGAUCACUCCUUUGCACUCCACUCCCCUCGUUCUGUCACUUUGAACGAAG	0.601
GCCUCCCUCCCACCAUCCCAGAAAGGCUCAGGGCAGCCGUGAUCCUCCUAGGGUCACAGUCGGUCAGCUUGGCUGCUCCAUUCUUUCAUAGGCAGGAUUCCUAAUUCCUG	0.334
AAAAGUCCUGUAUUUAUGUAUUUUUUGGAUUCAGUGUGAGGCAUUGAAUUAAAGAUACCGAUUAAAGAUUCUACCCUACAAAUCAUGUGUAUUUGUAUAUUUUAGGUUAA	0.426
CUUUCAAACUAAUGCCAGUGACUAGAGAGAGGUUUCAUUCAUGAUGUGUAUUUCCAAUUUGGUCUUCAAUUCAAGAGAUGCUUCAUAAAACACUUAUAGCCUUAAACCAU	0.677
UCUGACUCACAUGAAGUUACCUGUUUCUGUUAGCUUUUGGGGAGACUCUUGGACUCAUAGGGCAGAAUGAAGGGCUGUAAAGAUGAGGGGGUAUUUCUUCUACCCUAUCU	0.559
UCACCAUACAUCUUGGAAUUCUGUAAGUUUGUAUCCUAACUUGCCCAUAUUCUAAAUUUACAUAGUUUAUUUUCAGCCUUGAGUUGGAUGUUUUUUAGAAAUAUGCCCAG	0.408
GCAUUUCCCUGAGAGCAGUGGGAGAGGCCCUCUGAGUUGGAAGUUGAGCUCCACCUCCUUUCCAAGUGAGCACUCAGUGUUGAAUCACAGUUACAACCCACUGGGGCUGG	1.19
CCCUGGCCACGAGCUUUGGCCUUGGUCUACCUGCCAGGCCAGGCAAAGCGCCUUUACACAGGCCUCGGAAAACAAUGGAGUGAGCACAAGAUGCCCUGUGCAGCUGCCCG	0.312
AGAGUCACCACGCAGCAGUGUCCCUUCUUGGGUCUGAGUUCCUAUUAUAGGUAGGGGCCCCACCCUCUGGGCUUCCCAUCAGCGACACACACACACUUAUGGCACCAGCC	0.352
UCUCUGUGACCUCACCCUGGCCUCUCCUGGAGCUCUGAACCUGCUGUGGAAGGAAGUGGCUGUGACUUUAACCACUGGAGAGCGGAGUCUGUGGUGUGGAGAGGGUGUUC	0.831
UACAGAAGAAAUAGUUGCCACUGUCUAGGACAGUGCUGAAGCUAGGUGGUUAAACGGGUAACAGAAAUACUGUAUUGUGAGAAAUGACACAACAAAAGCCGGCAGGCAUC	0.42
GUCAAAGUGCUGGAAUUUUCCAAAACAGCCUGUUCUCUCCUCUCUCCUCCCCAGAGCACCCCCUGCCAUCAGGGGGGUUGAAAUCCCUCUCCCCCAGGAGCCCUGCUGCU	0.548

Study 2 — method: protein binding microarray; molecule type: double-stranded DNA, one strand shown; matrix: in vitro; concentration: not given; relative to: not given; direction: higher = stronger binding
Target: Histone acetyltransferase KAT6A, both winged helices, GST fusion (KAT6A, Homo sapiens, UniProt Q92794, residues 1-181)
Notes: 8-mer, flanks averaged, mean of 2 arrays, mostly near background
Residues (chain): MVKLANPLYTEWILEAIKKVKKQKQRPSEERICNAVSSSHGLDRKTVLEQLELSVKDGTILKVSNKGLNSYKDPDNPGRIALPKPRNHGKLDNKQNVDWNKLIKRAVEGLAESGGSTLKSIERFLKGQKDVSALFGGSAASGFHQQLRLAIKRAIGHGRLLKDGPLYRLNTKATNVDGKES
Oligonucleotide	E-score
AACGCCCC	0.0438
CGTGTCAC	0.183
CGCTTGAA	0.172
CAAGGGAG	-0.111
ATAGGTTA	-0.0766
CGTCGATA	0.225
ATTACACA	-0.0398
CAGTCTCA	-0.154
CAGCATTA	-0.147
GCTCGTAC	0.0368
CTCAAGGA	-0.162
AGGTTCTC	-0.0171
AAAGGTAG	-0.111
CACCAGGC	-0.126
CAAGTAAC	-0.0834
CATTTGCA	-0.0769
GCACAGCC	0.144
ACTCCCAG	-0.144
GACTTTAA	-0.197
CCGCAGCC	0.136
AACGTTGA	0.00724
GCAAGCAA	0.072
CGACAGTA	0.0445
AAGACTCT	-0.115
ATTCATGA	0.0445

Study 3 — method: protein-binding microarray; molecule type: double-stranded DNA, one strand shown; matrix: in vitro; concentration: 2540 nM top; notes: 60-bp whole probe; with: salmon DNA 0.4 mg/ml; relative to: random background probes; direction: higher = stronger binding; all sequences stand within: GCCTAGCAC … GTCTTGATTCGCTTGACGCTGCTG
Target: Interferon regulatory factor 3, full length, phosphomimetic (IRF3, Homo sapiens, UniProt Q14653, residues 1-427, S386D/S396D/S398D/S402D/T404D/S405D)
Construct (chain): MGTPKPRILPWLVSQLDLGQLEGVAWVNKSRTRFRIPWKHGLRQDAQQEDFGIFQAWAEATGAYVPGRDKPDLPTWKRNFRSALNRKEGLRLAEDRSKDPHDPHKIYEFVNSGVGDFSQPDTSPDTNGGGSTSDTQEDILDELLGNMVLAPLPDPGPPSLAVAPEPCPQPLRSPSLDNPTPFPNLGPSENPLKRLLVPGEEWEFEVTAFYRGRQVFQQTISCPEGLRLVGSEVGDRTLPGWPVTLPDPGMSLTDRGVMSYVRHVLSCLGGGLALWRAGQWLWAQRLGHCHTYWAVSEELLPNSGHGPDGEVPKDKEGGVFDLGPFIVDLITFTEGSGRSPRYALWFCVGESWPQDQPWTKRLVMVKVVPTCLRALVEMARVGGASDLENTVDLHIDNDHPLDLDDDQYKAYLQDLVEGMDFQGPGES
Oligonucleotide	fitted relative affinity
TCACATCTTCCTCTGCCACTGTGCTAG	0.974 z-score
GACGATATCAGTCTCGAGGCGTGCTAG	1.04 z-score
TCATTAATAAGGTTTCCAACTGTGCTA	2.53 z-score
TTGTTTCCATTTTCTGAATGCGTGCTA	9.28 z-score
TCAAATTTTAATAACACACTGTGCTAG	-0.0349 z-score
TCATGTCTGTAGCTCATACTGTGCTAG	0.0745 z-score
TCATTTTTTGTAATCGAACTGTGCTAG	1.14 z-score
TTAGGCCTGGGGTATCGGTTAGTGCTA	-0.47 z-score
GACGGTAACCTACTGCTGACGTGCTAG	0.145 z-score
GACAGACTGGACTTTCGGGACGTGCTA	0.0915 z-score
TTAGATTTCGCGACTGGATTAGTGCTA	0.123 z-score
CACGGTCTCGGTATCGGGACGTGCTAG	1.58 z-score
TTAGGACTGGGTCTCGGTCAGTGCTAG	-0.778 z-score
GACGGACTGGGTTTCTGGACGTGCTAG	-0.116 z-score
TTAGGTCTCCTTCTCCTGTAGTGCTAG	4.28 z-score
TGGCTTTGCCTTTTGCTTTAGTGCTAG	-0.0946 z-score
CTCAAGATTCCTCTCACCTCGTGCTAG	0.359 z-score

Study 4 — method: RNA Bind-n-Seq; molecule type: RNA; matrix: in vitro; concentration: 1 µM; notes: whole 134-nt RNA, ends assumed; with: 150 mM KCl; relative to: input library; direction: higher = stronger binding
Target: Ras GTPase-activating protein-binding protein 1, C-terminal RGG region (G3BP1, Homo sapiens, UniProt Q13283)
UniProt Q13283, sequence (whole entry, looked up): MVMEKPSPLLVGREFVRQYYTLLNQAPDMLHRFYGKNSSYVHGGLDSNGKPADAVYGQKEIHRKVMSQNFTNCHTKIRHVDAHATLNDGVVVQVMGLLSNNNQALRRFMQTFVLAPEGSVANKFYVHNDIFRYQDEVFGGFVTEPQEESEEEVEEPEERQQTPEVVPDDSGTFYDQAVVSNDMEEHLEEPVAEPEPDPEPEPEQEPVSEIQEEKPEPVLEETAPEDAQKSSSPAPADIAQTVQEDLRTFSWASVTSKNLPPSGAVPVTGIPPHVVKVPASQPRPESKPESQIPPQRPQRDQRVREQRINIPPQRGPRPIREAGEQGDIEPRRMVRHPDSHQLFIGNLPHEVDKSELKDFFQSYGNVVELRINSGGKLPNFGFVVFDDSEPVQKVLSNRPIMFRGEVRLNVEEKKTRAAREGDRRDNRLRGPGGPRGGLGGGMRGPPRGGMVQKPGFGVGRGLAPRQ
All sequences stand within: GGGAGUUCUACAGUCCGACGAUC … UGGAAUUCUCGGGUGUCAAGG
Oligonucleotide	log2 enrichment
GUCCUGUGCUACACAUCGUAUGUACCGAAUCGGGUUUUUUUGGGUGGGUUUUUUUGGGAAAGUAUUAUGUUACGCCGUUCGGAUCUGCAC	0.406
UCAAGUCCUGUGCUACACAUCGUAUGUACCGAAUCGGCCCGGGCCCGGGGCCCGGAAAGUAUUAUGUUACGCCGUUCGGAUCUGCACUUC	-1.68
CCUGUGCUACACAUCGUAUGUACCGAAUCGGGGCCCCCGGGGCCCCCGGGGCCCCCGGGGAAAGUAUUAUGUUACGCCGUUCGGAUCUGC	-1.94
CUCAAGUCCUGUGCUACACAUCGUAUGUACCGAAUCGGAAAGGGAAAGGAAAGGAAAGUAUUAUGUUACGCCGUUCGGAUCUGCACUUCC	-1.54
UGGCCCUGGUGGCAUGCGGGGAGGAAGAGGUGGCCUCAUGGAUCGUGGUGGUCCCGGUGGAAUGAUCAGAGGUGGCCGUGGUGGAGACAG	1.88
CCUGUGCUACACAUCGUAUGUACCGAAUCAAAGUGUGUGUGUGUGAAAUGUGUGUGUGAAAAAAGUAUUAUGUUACGCCGUUCGGAUCUG	-0.258
AAGUCCUGUGCUACACAUCGUAUGUACCGAAUCGGGAAAAGGAAAAGGAAAAGGGGAAAGUAUUAUGUUACGCCGUUCGGAUCUGCACUU	-1.67
UCCUGUGCUACACAUCGUAUGUACCGAAUCGGGGAAAAAAAGGGGUGGGGUUUUUGGGGAAAGUAUUAUGUUACGCCGUUCGGAUCUGCA	1.61
UUAAGUUGAAGGAGCGCUACCGCAACGUGCUGGACACCAUGUUCGAGCUGCUGCCCCGGAUGGCCAGGUACUGCCAGCCCCCACCCUGGC	-0.955
AAGUCCUGUGCUACACAUCGUAUGUACCGAAUCGGAAAAAAAGGAAAGGUUUUUGGAAAGUAUUAUGUUACGCCGUUCGGAUCUGCACUU	-2.18
